Assay results gathered from unrelated publications.
Every numbered part comes from another study and shows a few of its results, in no order. Changes are numbered by the printed parent chain.

Study 1 — target: CCNA2, cyclin fold, Cln2 fusion (human); method: yeast growth competition, sequencing; medium: yeast; setting: strong parent motif; baseline: not given; reading: higher = stronger binding
Parent: CDKN1B docking peptide (human); PSACRNLFGPVDH; partner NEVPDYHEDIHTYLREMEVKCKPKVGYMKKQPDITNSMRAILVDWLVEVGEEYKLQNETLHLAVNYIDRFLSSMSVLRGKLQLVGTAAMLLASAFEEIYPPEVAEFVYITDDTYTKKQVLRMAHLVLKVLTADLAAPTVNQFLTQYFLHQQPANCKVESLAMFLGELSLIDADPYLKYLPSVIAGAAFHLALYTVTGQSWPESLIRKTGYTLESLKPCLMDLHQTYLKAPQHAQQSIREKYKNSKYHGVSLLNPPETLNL
| Change | normalised enrichment score |
| --- | --- |
| PSFCRNLFGPVDH [A3F] | 4.11 |
| PSACRNLFMPVDH [G9M] | 1.68 |
| KSACRNLFGPVDH [P1K] | 5.12 |
| PNACRNLFGPVDH [S2N] | 3.6 |
| PIACRNLFGPVDH [S2I] | 3.4 |
| PSACRNLFGYVDH [P10Y] | 4.34 |
| PSACRHLFGPVDH [N6H] | 0.883 |
| PSACNNLFGPVDH [R5N] | 0.311 |
| PSACRNLFGLVDH [P10L] | 3.77 |
| PSACRMLFGPVDH [N6M] | 3.34 |
| PSACRNLFGPVDV [H13V] | 3.76 |
| PSNCRNLFGPVDH [A3N] | 0.132 |

Study 2 — method: protein binding microarray; molecule type: double-stranded DNA, one strand shown; medium: in vitro; concentration: not given; baseline: not given; reading: higher = stronger binding
Target: Histone acetyltransferase KAT6A, winged helix 2, GST fusion (KAT6A, Homo sapiens, UniProt Q92794, residues 85-181)
Setting: 8-mer, flanks averaged, mean of 2 arrays, mostly near background
Construct (chain): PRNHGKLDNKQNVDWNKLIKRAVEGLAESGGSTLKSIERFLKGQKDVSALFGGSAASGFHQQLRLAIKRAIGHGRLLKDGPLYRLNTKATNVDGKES
| Oligonucleotide | E-score |
| --- | --- |
| CCACGGAC | -0.111 |
| CGTCACAG | -0.0972 |
| CCCTCGGC | 0.209 |
| CCGCTCAC | 0.0492 |
| CGCGTACC | 0.0584 |
| CGGCACGA | 0.231 |
| CCCCGCAA | 0.061 |
| ATAAAATA | 0.0446 |
| AAATTATA | -0.029 |

Study 3 — method: DHFR PCA, dose-response; medium: yeast; setting: Hill fit, mean, not affinity; added: (+)-ABA, dose series; reading: lower = more sensitive
Target: ABI1, truncated, D143A, DHFR fusion (Arabidopsis thaliana, UniProt P49597)
Parent: PYL1, truncated, DHFR fusion (Arabidopsis thaliana, UniProt Q8VZS8); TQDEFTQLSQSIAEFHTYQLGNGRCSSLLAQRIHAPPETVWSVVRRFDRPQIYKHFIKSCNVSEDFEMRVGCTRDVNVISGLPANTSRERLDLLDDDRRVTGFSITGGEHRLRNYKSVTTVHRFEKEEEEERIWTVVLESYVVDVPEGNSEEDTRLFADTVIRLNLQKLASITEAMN
| Change | ABA EC50 |
| --- | --- |
| I79W | 5.09 µM |
| V118I | 2.3 µM |
| D48R | 147 µM |
| T17V | 12.5 µM |
| R155L | 13.1 µM |
| N77R | 1.75 µM |
| R45G | 138 µM |
| T135S | 2.51 µM |
| D65M | 8.66 µM |

Mixed results
| Substance | target | assay | system | setting | how to read | measurement | value |
| --- | --- | --- | --- | --- | --- | --- | --- |
| PhoQ, residues 284 288 289 292 302 303 TVTVVA | PhoP, residues 12 14 15 18 19 NMSFL (Escherichia coli, UniProt P23836) | Sort-seq, measured: YFP reporter | E. coli | PhoQ-PhoP variant library, added: 10 µM Mg2+ | baseline: high Mg2+ state, higher = stronger signaling | fold induction | 7.57 |

Repeated from above (study 1):
| Change | normalised enrichment score |
| --- | --- |
| PIACRNLFGPVDH [S2I] | 3.4 |
| PSFCRNLFGPVDH [A3F] | 4.11 |
| PSACNNLFGPVDH [R5N] | 0.311 |
| PSNCRNLFGPVDH [A3N] | 0.132 |
| PSACRNLFMPVDH [G9M] | 1.68 |
